Measured values collected from several papers.
Every numbered part comes from another study and shows a few of its results, in no order. Changes are numbered by the printed parent chain.

Block 1
Target: Interferon regulatory factor 3, full length, phosphomimetic (IRF3, Homo sapiens, UniProt Q14653, residues 1-427, S386D/S396D/S398D/S402D/T404D/S405D)
Method: protein-binding microarray
Molecule type: double-stranded DNA, one strand shown
Matrix: in vitro
Tested at: 2540 nM top
Setting: 60-bp whole probe
Together with: salmon DNA 0.4 mg/ml
Baseline: random background probes
Reading: higher = stronger binding
All sequences stand within: GCCTAGCAC … GTCTTGATTCGCTTGACGCTGCTG
Target sequence (chain): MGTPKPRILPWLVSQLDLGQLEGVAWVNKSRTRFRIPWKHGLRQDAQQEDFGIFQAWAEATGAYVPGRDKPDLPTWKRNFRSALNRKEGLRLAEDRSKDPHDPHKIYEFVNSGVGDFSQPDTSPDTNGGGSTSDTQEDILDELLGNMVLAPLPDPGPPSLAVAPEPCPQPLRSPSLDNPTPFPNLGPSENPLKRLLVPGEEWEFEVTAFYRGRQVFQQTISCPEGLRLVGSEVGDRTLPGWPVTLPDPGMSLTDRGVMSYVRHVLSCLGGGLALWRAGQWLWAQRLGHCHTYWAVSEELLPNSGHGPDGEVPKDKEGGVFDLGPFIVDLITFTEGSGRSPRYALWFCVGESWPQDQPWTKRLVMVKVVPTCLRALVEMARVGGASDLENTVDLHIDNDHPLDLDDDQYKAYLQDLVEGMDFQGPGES
Sequence | fitted relative affinity [z-score]
GACGGCCTGCTTATCCTGACGTGCTAG | -0.569
TCACATTTAATTATATGACTGTGCTAG | 1.14
ATATACCTGAATATCTTCAGGTGCTAG | 0.465
TTAAGTATCGGTCTCGGTTAGTGCTAG | 5.08
GACGGTATCTTTATCCTGACGTGCTAG | 1.24
GACGTTCTCAGTTTCGAGACGTGCTAG | 2.94
TGAGGTTTCCTACTGCTTTAGTGCTAG | 4.35
GTCGGACTGCTTATCCTGACGTGCTAG | 0.291
CACCCACTCTTTCCTCACCATGTGCTA | 1.01
TCAGCTTTCATTTATTTACTGTGCTAG | 1.41
TCAGCTTTCTTTACCACACTGTGCTAG | 1.48
GACGGTATCGGTATAGGGACGTGCTAG | 3.58
TCAGATATGCCAAATCTGACTGTGCTA | 0.121
TTAGGTTTCGACTATTGGTTAGTGCTA | 2.09
ATGTTTTTCATTGTTTTTCAGTGCTAG | 1.05
TTAGGTCTCAGTATCGGTTAGTGCTAG | 2.26
CAAGTTACCCACCTCAGGTAGTGCTAG | 2.39
TTTGCTTTCCTGATGGTCTTGTGCTAG | 2.35
GACGATCCCAGTTTCGAGACGTGCTAG | 2.11
AGGAGAGATTAAGTAACTTAGTGCTAG | -0.425
GACGGTATCGACTTTTGGGACGTGCTA | 0.824
TTATAACTGGGGTTTCGATTAGTGCTA | 1.65
TAAAGCATTACTTTAGGTTCGTGCTAG | -0.148
TTAGATCTGGGGTTTCGATTAGTGCTA | 1.13
GACGGTATCGGTCTCGGGCCGTGCTAG | 4.24

Block 2
Target: CCNB3, cyclin fold, Cln2 fusion (human)
Method: yeast growth competition, sequencing
Matrix: yeast
Setting: weak parent motif
Baseline: not given
Reading: higher = stronger binding
Starting sequence: DNAH7 docking peptide (human); HELFQRLDFDNDG
Change | normalised enrichment score
F4A | -0.0769
N11A | 0.319
H1A | 0.344
D8A | 0.164
F9A | -0.0582
E2A | 0.43
L3A | -0.23

Block 3
Target: RNA binding protein fox-1 homolog 2, RRM domain, GST-SBP tag (RBFOX2, Homo sapiens, UniProt O43251-10, residues 100-194)
Method: RNA Bind-n-Seq
Molecule type: RNA
Matrix: in vitro
Tested at: 365 nM
Setting: natural RNA segment, single round, ends assumed
Baseline: no-protein control
Reading: higher = stronger binding
Construct (chain): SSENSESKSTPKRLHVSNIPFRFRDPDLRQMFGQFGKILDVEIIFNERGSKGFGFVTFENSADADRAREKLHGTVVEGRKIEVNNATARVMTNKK
Sequence | RBNS enrichment (R)
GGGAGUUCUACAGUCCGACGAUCACCGUUAAAAUAUGCACUAAGUCUCUUUUUUUUACAAAGGCUGAAUUCAGCAAGGCGCUAACUUGCUUAAAUGUGAAUUACUAACUUCUAAAACUGUAAUUUGAUUCACAUGGAAUUCUCGGGUGCCAA | 0.618
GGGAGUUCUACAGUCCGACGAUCAAUGUCUGAUAAUCUGCAAAACAAAACCUACCAAAUGGAAUCAGGGGCGACAUCUCAGUCGGUCCGGCUGGCAUUGCGUUGCUUGGGCUACCUCCGAUGACAGAAACGUGUGGAAUUCUCGGGUGCCAA | 0.278
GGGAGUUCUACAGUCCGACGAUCUAAAUAUAUGGGAGACUGAUUAUAAAGAAUAAAGAAUAUUUGCAUUUACUUAUGCAACUACUAAUUUAAAUACUUUCCAGAAGUGGGAUACAUAAAGCUAUGGUUUAAUAUGGAAUUCUCGGGUGCCAA | 0.689
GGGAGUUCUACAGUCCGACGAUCGUGUCCUGUGAAUUUCAACCCUUGGAGCCUAAGAAAACCCUAGGAAGAUGAUGUUAAUUUGCUGUCAUUUCCUAAUUCAGGAUCUAUCAUCAAAUGAAACAUGAAAAAAAUGGAAUUCUCGGGUGCCAA | 0.206
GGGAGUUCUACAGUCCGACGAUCAAAGCAAAUUAAAAAAAAAUACAUUAGGAAAAGUUACACAAAUGAAGUGUACGCCUAUUAUAUUCCCAAGGCAUUUUUGUGGGGAGGAACAGUGCUGCUUGUUGGCCUUUUGGAAUUCUCGGGUGCCAA | 0.696
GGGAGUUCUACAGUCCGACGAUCUUGUUGUGCUGGCCCAGGCGUGGGGCUACCAAGCAAAGGCUUGGCAUAUACCAAAGGCCAGCUGCAUGCCCAUCAGUCUGGUCUUUUUCCUCUGCGGUCAUGUUGGCUUUUGGAAUUCUCGGGUGCCAA | 0.762
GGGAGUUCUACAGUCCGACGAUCCUCCACCAAGACCAUAUAGACCAUCUGGCGGGCUCAAGCCGGGGCUUUUUCCUCUCCAGUCCAAAACACCUCACUGUUCCUGUCUACCUCGGGGUCAGGGCCCGGCAUGGUGGAAUUCUCGGGUGCCAA | 0.52
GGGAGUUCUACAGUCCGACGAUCCCCAGGCAGUGCAGCUCCCUGGUGGGUUGGUAGAGGGACCUCAGCUUAAGGAACUGCCCUGCCACUCACCCAGGUGACAGCCUGUAGCAGUGCAUGGAGACCCCUUUAGGUGGAAUUCUCGGGUGCCAA | 1.91
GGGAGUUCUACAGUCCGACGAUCGUGCAUUGUAUCUUUUUCAUAAUGGUACUAUUUAGAAGCCCAGUUAGUCUUACUGAGCUUAUGCUUCACUCCUUUAUGUUUAACCAUGUGUCUACAAGAAUAAGUUUGUUUGGAAUUCUCGGGUGCCAA | 0.438
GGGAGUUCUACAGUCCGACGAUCAAGUUAUAAGUCAGAUUUAAUUAGCAUCAGAGUUGAUUUUAUAUUAGUCAGAUUUUGGAUCAUCACAGAGAUCUCCACAACUCCUUGGCUUAAACAGCUCCACCGGUAAAUGGAAUUCUCGGGUGCCAA | 0.42
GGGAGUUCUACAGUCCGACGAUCCUGAGGAAUUCUUGUACGCAGUUUUCUUUGGCUUUACGAAGCCGAUUAAAAGACCGUGUGAAAUGAACCUUGCUCUGACAAUUCCCUUGCAUUGCACCACACACUCCUUGUGGAAUUCUCGGGUGCCAA | 0.544
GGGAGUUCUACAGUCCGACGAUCACUGACAUCAGUGUCCAAUAUAUGGUAUAUUUUUAUAAUAUAAUAUCCUAGUAUGAUUGGUUAUAUCAAGAAUUGACAAGUGCAGAUAAAGACCUUUCCCAUAGGAGUUCUGGAAUUCUCGGGUGCCAA | 0.626

Block 4
Target: Max dimerization protein 1, bHLH-zipper, MAX partner unstated (MXD1, Homo sapiens, UniProt Q05195, residues 56-136)
Method: protein-binding microarray
Molecule type: double-stranded DNA, one strand shown
Matrix: in vitro
Tested at: not given
Setting: k-mer, scored over probes, only values ≥0.25
Reading: higher = stronger binding
Target sequence (chain): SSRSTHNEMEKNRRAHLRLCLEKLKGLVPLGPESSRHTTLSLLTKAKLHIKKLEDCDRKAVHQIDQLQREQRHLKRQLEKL
Sequence | E-score
AATCCACG | 0.28
AAGACACG | 0.32
AGGCACGC | 0.319
ACACGCGG | 0.451
CGTCACGC | 0.283
CACTCCCC | 0.347
AATGCGTG | 0.307
TCGTGGAA | 0.3
CCCACGAG | 0.39
ATGAGGGG | 0.355
ACGTGCAC | 0.346
CCGTGCAC | 0.283
GCGTGTAA | 0.368
ATTCCATG | 0.292
ACGAGGGA | 0.326
ACGTTGTC | 0.327
ACATGAGT | 0.319
CAAGGGGC | 0.265
ACACGTGA | 0.479
CCATGGGG | 0.274
AAAGCGTG | 0.39
ACATGCCC | 0.364
CGCACGCC | 0.315
ACGTGGGC | 0.392
AGCGTGCG | 0.359

Block 5
Target: ABI1, truncated, D143A, DHFR fusion (Arabidopsis thaliana)
Method: DHFR PCA, deep sequencing
Matrix: yeast
Setting: methotrexate growth selection, single substitutions
Together with: (+)-ABA 0.032 µM
Baseline: wild-type fitted maximum
Reading: higher = stronger binding
Starting sequence: PYL1, truncated, DHFR fusion (Arabidopsis thaliana); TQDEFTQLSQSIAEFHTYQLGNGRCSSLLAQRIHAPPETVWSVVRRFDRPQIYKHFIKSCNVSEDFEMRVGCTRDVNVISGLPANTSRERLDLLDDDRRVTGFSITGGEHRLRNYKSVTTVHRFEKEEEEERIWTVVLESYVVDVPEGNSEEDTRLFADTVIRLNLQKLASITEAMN
Change | relative binding score
E67F | 0.742%
D3V | -0.273%
H16Y | -3.33%
S150E | 9.94%
R32L | 30.5%
R90H | -1.89%
P36V | 2.7%
V142H | 0.696%
E129D | 48.7%
L29F | -1.78%
N114T | -1.73%
R74Y | -3.96%
L166P | 11.1%
V100L | -0.766%
E67W | 3.41%
V76E | -3.56%
